Experimental data gathered from unrelated publications.
Numbered parts are unrelated; each lists some results of a single study.

Series 1 — method: protein binding microarray; form: double-stranded DNA, one strand shown; medium: in vitro; concentration: not given; baseline: not given; reading: higher = stronger binding; endpoint: E-score
Target: Histone acetyltransferase KAT6A, winged helix 2, GST fusion (KAT6A, Homo sapiens, UniProt Q92794, residues 85-181)
Notes: 8-mer, flanks averaged, mean of 2 arrays, mostly near background
Construct (chain): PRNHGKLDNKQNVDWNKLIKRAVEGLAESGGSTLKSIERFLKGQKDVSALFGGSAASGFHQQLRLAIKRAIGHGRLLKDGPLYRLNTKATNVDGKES
GCCATCGC: 0.0367
CAAACTAC: -0.0146
AGTTAACA: 0.0818
AACAGTAA: -0.151
ACATTACC: -0.231
TACCTGGA: 0.0574
AACTTAGT: -0.0471
AATAAAAT: 0.0947
GCTTCATA: -0.0114
CCCTTTGC: 0.151
AGGTTGAG: -0.121
AGCGCGGG: 0.211
CATGAGAC: -0.0284
GGCTGGAC: 0.0215
CCTGTGCG: 0.0846
CATCAGCA: -0.0551
GAGCACGC: 0.0418

Series 2 — method: RNAcompete; form: RNA; medium: in vitro; concentration: 20 nM; notes: 7-mer, probes averaged, single round; baseline: mean of 7-mers; reading: higher = stronger binding; endpoint: 7-mer Z-score
Target: PABPC1L2, full length, GST fusion (mouse, UniProt A0ABA7IW68)
Residues (chain): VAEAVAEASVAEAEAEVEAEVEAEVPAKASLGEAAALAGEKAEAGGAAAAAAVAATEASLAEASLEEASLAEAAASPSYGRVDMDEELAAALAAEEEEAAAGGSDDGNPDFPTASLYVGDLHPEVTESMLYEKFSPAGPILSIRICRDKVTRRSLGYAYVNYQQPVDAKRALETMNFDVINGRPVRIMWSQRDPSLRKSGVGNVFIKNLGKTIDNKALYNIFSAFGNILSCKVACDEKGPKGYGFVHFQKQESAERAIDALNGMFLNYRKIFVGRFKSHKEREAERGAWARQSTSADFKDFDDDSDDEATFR
AUGGAAA: 0.742
UGAGUCG: -0.454
UGACGAC: -0.00833
UAAGUUA: -0.148
GUGCGCG: -0.157
UUUGAGG: -0.151
CACAGUA: -0.117
AAAAGGA: 3.54
CGCUUAU: -0.325
GUCACUA: -0.124
AAUGAAU: 0.0805
CUCAUGC: -0.278
GGGGGGA: 0.321
CUGCUCU: -0.365
CUUGACC: -0.229
CCGAGCG: -0.0808
ACCAGUA: -0.0953
GCUCCGA: -0.128
UCGGUAU: -0.251
AAUCCUG: -0.267

Series 3 — method: RNA Bind-n-Seq; form: RNA; medium: in vitro; concentration: not given; baseline: input RNA pool; reading: higher = stronger binding; endpoint: bound/input enrichment
Target: RING finger protein unkempt homolog, zinc fingers 1-6, GST-SBP tag (UNK, Homo sapiens, UniProt Q9C0B0, residues 30-357)
Notes: RNA with constant flanks, human and mouse sites, ends assumed
Shared flanks, not repeated: GGGAGUUCUACAGUCCGACGAUC … CAACAGAGGAUUGAGCAUCA
Residues (chain): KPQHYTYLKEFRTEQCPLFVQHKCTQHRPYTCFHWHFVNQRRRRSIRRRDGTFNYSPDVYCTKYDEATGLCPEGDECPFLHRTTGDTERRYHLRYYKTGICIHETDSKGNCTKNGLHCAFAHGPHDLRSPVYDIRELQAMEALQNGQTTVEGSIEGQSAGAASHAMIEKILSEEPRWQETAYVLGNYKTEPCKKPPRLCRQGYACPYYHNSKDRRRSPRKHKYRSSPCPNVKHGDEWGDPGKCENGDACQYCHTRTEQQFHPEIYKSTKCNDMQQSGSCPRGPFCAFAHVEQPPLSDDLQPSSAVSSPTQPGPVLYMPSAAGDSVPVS
UUGCCCAUCAGAUUUAAUCUUACUUAUGUAAGCCAUGAUGGUGAUGAUAAGAAAAGGCCAGUGAUUGUUCAUCGAGCCAUCUUGGGAUCAGUGGAAAGAAUGAUUGCUAUCCUCACAGAA: 0.137 ratio
CACCCUACAGUGGGUGCAGGCGUGCUUCACAUCACUGAAAAUGGGCCAACUGAAGUGGACUACAGUCCUUCUGACAUGCAGGACUCCAGUUUAUCACAUAAGAUACCACCUAUGGAGGAG: 0.136 ratio
AUGUUAAGCCAUUCUUGAUUGGACCUCAUAGCUUAUUUUAGUUAAUCUUUUUUUUGUCUUUUAGCCUUACCACCUUUUAAAAAAUUUGUUAUUCUCCAGAAACAGUAAAUAGGUGAGUAG: 352 ratio
AAAGAAAAAGAUGAAAUGGUAGAACAAGAAUUUAACCGGUUGCUAGAAGCCACUUCUUACCUUAGUCACCAGUUAGACUUCAACGUCCUCAAUAAUAAACCUGUAUCCCUUGGCCAGGCA: 0.298 ratio
GAAGUCAGGAAAAAGUGUGCUGAGGAGGCCCAGCUGAUUUCUUCCCUGAAAGCAGAAAUAACUAGUCAAGAAUCUCAGAUCUCCAGUUAUGAGGAAGAACUGUUGAAAGCUAGAGAAGAA: 0.546 ratio
CACCGUUUCCUUGUCUAUAAUCCUCUCUCCUUCUGUUUAACUCAUACACGAGCUUCCUUCACUUACCGUCUGCUGUGCUCUGACGUCACAGCAUUUACCGUUUGGUCAGCUGGGAUGCUG: 0.344 ratio
GACAACUGCAGAGAAGUGAUCAUCACACCAAACUCUGCAUGGGGCGGAGAAGGCAGCCUUGGAUGUGGCAUUGGCUAUGGUUAUUUGCACCGAAUACCUACACGCCCCUUUGAAGAAGGA: 0.172 ratio
GAGGUUAGAGCUAGUGUGGUUUUGAGGUCUCACUACACUUUGAGGAAGGCAGCUUUUAAUUCAGUGUUUCCUUAUGUGUGCGUACAUUGCAACUGCUUACAUGUAAUUUAUGUAAUGCAU: 0.591 ratio
GCAUUAACAAACAAGGUACAAAUGACCUCUCCGAGCAGCACUGGCAGUCCCAUGUUUAAAUUUUCAUCUCCAAUCGUAAAAUCUACUGAGGCAAAUGUACUACCUCCAUCAUCUAUUGGA: 0.277 ratio
ACCUGAGGACAUUCUGAGACUUCCUUUCUUCCAUUUUUUUUUUUUUUAAAGAGCCUGUGAUAGUUGCUGUGGGCAGCCAGUUCCUGGGGCUUCCUCUUGGGCCCCCUGCACUCGGUCUCC: 0.863 ratio
UUGCUGAUGACUUCUUGUGGCAUUUCACACUGUAGAUGGUCACUGCCUCUCAUGUCCAUGUUAGCUAAUGGUGUAAGAUGAUGUCUUGUCAGUAUUACUGUUUUGCUAAGCUGCUUCAUU: 0.0808 ratio

Series 4 — method: competition protein-binding microarray; form: double-stranded DNA, one strand shown; medium: in vitro; concentration: 2 µM; with: Pho4 competitor, 0.05 µM; reading: higher = stronger binding; endpoint: fluorescence intensity; shared flanks, not repeated: … GTCTTGATTCGCTTGACGCTGCTG
Target: Centromere-binding protein 1, full length, His-tagged (CBF1, Saccharomyces cerevisiae, UniProt P17106, residues 1-351)
UniProt P17106, sequence (whole entry, looked up): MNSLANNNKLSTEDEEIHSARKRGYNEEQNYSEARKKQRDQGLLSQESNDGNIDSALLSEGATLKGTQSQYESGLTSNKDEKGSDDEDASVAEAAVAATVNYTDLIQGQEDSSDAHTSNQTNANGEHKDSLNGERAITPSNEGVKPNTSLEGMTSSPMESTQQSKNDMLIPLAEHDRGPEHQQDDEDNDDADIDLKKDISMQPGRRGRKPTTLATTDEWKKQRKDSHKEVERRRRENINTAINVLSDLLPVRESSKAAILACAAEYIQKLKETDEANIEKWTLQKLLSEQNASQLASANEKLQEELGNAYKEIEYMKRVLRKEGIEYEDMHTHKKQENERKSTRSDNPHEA
Notes: whole 60-bp probe, lowest competitor level
GGATTAATTGCGTATCAGCTGACAGAGGTAACAAAG: 855 a.u.
TTGGAACCCATACCTCACGTTTGAAATTGACACCCG: 80.2 a.u.
AATCCGCGTAGCCATCACGTCGCGCAATGTGCGATA: 94.8 a.u.
CGTTGGTGGTGCAAAGTCGTGCTTTAACCCATCGGG: 66.6 a.u.
TGGACCCTTGTCCGTCACGTGAGGAAAAATACTATT: 6650 a.u.
CATACCCAACCTTGACTCGTGGGTGAAGATATTTGT: 84.4 a.u.
CTTTGTTTTTAACATCACATGTTGTTTCCATCAGAA: 1140 a.u.
GCATAGTCATATCACCACGTGGAACATCATGAAAAA: 1230 a.u.
CGGGGTTAAGTTTGGGTTGTGGGTGGCTTGCAGCAG: 71.9 a.u.
CAGAGTGGTTTATGTCAGGTGGTATTGCCTTGGATC: 343 a.u.
AGGCTGCTTGATGTATTCGTGCGGAAAAAAAAAAAG: 74.6 a.u.
AAATTACTAAGTTTTCACGTGCTATACCCCGTATGA: 1400 a.u.
CTAACGAAGGTTTAACACGTGTTTTACAAGCCAAGT: 1670 a.u.
TAATGGTATAGGCGTCACCTGCCGAAACAAAAATCG: 235 a.u.
CAGGCTGGTGCGCAGCACATGGCCGGGCTCCGGGTG: 67 a.u.
TGTTACTGGGACAACGGCGTGCTAAGTGCATTTACT: 67 a.u.
TGGACCTCTGACGGTAACGTGAAGAGCAATTTTTTC: 125 a.u.
TTTGGCAAATTGACTCACGTGAGGACGTCTGCTAAC: 2560 a.u.
TATGTATGCCTATTTCACATGTTACTAACTGAAGAC: 146 a.u.
CATCTTCAATATCCAGACGTGCAAAATGTTTCAATA: 101 a.u.
AATCACAGATTGTTAGCCTGATGTATACAGTAAATT: 76.6 a.u.
GGCGGGAGGGAGCCGCATGTGCTCTATTACTTTCTT: 93.8 a.u.
AAAGCGGTAATTTGTCATGTGGGTGCAGATATCTAT: 217 a.u.
AAAGCGGTAATTTGTGTCGTGGGTGCAGATATCTAT: 86.6 a.u.
CATACCCAACCTTTTCACGTGCAGTAAGATATTTGT: 897 a.u.

Series 5 — method: universal PBM; form: double-stranded DNA, one strand shown; medium: in vitro; concentration: not given; reading: higher = stronger binding; endpoint: E-score
Target: Sal-like protein 4, full length isoform B (SALL4, Homo sapiens, UniProt Q9UJQ4-2, residues 1-616)
Notes: 8-mer, flanks averaged, mean of replicates
GTCATTCA: 0.145
AAAAGATT: 0.205
ATAAAGAG: 0.139
AGGCTAGA: -0.0625
CTCACAGC: -0.158
GACATCGC: -0.151
CGGAACCC: -0.261
GGAAGACA: 0.112
CAGTGACC: -0.348
GATTTGGA: 0.132
GGGATCAA: 0.0247
AATAAGAG: 0.221
CATATCGG: 0.192
AATGACCA: 0.0558
CCCAGCAA: -0.0882
CGCTGCAC: -0.249
AGAGGTAA: 0.098
GCTCGAAA: -0.0587
GGATGACC: -0.31

A few entries again (series 1):
ACATTACC: -0.231
CCTGTGCG: 0.0846
AACTTAGT: -0.0471
CATGAGAC: -0.0284
AGGTTGAG: -0.121
AGCGCGGG: 0.211
AATAAAAT: 0.0947
GGCTGGAC: 0.0215
AACAGTAA: -0.151
GAGCACGC: 0.0418
AGTTAACA: 0.0818
CATCAGCA: -0.0551
GCCATCGC: 0.0367
TACCTGGA: 0.0574
GCTTCATA: -0.0114
CAAACTAC: -0.0146
